Measurements of several laboratories.
Each line is one published result; not all experiments were run side by side. ± marks the error that the study gave.
OPRD1: Delta-type opioid receptor (OPRD1, Homo sapiens, UniProt P41143)

Chains of the proteins cited; added tags and fusions are not shown.
UniProt P41143, whole entry: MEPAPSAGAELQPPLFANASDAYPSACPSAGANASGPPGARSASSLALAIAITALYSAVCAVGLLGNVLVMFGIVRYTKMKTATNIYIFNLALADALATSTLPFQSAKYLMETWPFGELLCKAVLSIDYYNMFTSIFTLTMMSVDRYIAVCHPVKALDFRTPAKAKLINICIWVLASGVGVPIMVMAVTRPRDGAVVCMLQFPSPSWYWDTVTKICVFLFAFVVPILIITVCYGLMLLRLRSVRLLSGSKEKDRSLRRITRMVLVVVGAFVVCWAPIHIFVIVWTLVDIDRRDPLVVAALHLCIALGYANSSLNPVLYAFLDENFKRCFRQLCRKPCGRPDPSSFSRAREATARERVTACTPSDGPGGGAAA
UniProt P42679, whole entry: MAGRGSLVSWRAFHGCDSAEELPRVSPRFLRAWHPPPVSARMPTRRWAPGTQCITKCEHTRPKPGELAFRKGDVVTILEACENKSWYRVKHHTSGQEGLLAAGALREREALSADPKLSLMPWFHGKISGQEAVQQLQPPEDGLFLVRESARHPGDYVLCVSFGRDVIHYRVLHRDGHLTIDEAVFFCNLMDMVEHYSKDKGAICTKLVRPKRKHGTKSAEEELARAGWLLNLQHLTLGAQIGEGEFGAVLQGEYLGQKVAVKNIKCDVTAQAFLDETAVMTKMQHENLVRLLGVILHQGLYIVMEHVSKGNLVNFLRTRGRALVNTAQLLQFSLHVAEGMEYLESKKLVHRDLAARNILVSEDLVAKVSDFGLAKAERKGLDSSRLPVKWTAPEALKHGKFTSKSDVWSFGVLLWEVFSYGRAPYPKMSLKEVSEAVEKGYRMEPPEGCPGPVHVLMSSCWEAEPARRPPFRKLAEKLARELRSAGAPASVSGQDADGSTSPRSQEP
UniProt Q96J92, whole entry: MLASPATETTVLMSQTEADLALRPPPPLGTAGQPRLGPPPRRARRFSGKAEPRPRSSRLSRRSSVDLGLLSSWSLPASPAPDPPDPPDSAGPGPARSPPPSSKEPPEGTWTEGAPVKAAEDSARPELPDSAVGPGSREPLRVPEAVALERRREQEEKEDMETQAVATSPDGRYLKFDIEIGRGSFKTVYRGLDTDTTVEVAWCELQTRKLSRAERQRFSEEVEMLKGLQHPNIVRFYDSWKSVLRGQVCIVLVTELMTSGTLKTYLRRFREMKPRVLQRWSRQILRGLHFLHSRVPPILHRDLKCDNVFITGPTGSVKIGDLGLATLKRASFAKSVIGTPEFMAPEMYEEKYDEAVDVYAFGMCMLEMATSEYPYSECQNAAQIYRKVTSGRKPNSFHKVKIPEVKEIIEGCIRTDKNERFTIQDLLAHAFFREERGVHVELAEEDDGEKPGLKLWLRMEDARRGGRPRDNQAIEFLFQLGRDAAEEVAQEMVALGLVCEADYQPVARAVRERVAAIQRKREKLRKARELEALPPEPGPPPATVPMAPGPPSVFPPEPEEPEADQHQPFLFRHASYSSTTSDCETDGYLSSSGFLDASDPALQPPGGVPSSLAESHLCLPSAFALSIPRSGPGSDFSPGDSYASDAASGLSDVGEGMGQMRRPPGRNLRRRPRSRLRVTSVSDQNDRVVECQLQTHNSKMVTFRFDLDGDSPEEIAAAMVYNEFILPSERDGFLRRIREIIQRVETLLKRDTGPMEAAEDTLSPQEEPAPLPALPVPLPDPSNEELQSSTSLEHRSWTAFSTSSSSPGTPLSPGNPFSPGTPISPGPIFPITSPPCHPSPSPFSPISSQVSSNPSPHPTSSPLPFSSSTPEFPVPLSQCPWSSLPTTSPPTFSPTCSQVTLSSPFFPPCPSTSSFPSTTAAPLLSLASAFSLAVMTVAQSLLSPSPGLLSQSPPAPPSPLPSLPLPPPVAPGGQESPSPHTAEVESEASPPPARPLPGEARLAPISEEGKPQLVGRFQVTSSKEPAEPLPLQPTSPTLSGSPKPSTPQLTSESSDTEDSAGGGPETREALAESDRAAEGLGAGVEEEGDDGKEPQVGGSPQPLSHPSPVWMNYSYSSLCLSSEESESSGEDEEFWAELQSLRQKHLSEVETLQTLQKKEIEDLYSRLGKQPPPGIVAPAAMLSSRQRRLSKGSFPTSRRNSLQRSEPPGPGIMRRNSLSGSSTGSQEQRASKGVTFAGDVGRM

Compound = CC#C/C(=N\OC[C@H]1COCCN1)c1ccc2ncnc(Nc3ccc(OCc4cccc(F)c4)c(Cl)c3)c2c1; target = MATK (Homo sapiens, UniProt P42679); test = kinase activity; conditions = 10 µM; measurement = inhibition; result = -12.2%
Compound = CN1CC[C@]2(c3cccc(O)c3)C[C@H]3CCCC[C@@H]3[C@H]1C2 (relative stereo); target = OPRD1; test = binding; test system = CHO cells expressing human DOR; conditions = exploratory, with: [3H]DADLE; measurement = Ki; result = 0.116 ± 0.00287 µM
Compound = CCN1CCN(Cc2ccc(NC(=O)c3ccc(C)c(/C=C/c4cnc5[nH]ccc5c4OC)c3)cc2C(F)(F)F)CC1; target = WNK4 (Homo sapiens, UniProt Q96J92); test = inhibitor, cell-based kinome screen; conditions = 5 µM; scale = baseline: vehicle; measurement = log2 fold change; result = 0.47
Compound = CO[C@]12CC[C@@]3(C[C@@H]1[C@H](O)c1ccccc1)[C@H]1Cc4ccc(O)c5c4[C@@]3(CCN1CC1CC1)[C@H]2O5; target = OPRD1; test = G-protein activation, agonist; measurement = EC50; result = 0.00454 ± 0.00058 µM
Compound = COCO[C@H]1C[C@@H](C(=O)OC)[C@]2(C)CC[C@H]3C(=O)O[C@H](c4ccoc4)C[C@]3(C)[C@H]2C1=O; target = OPRD1; test = radioligand binding; test system = CHO expressing OPRD1; conditions = with: [3H]DADLE; measurement = Ki; result = 2.84 ± 0.18 µM
Compound = CO[C@]12CC[C@@]3(C[C@@H]1[C@@](C)(O)C(C)(C)C)[C@H]1Cc4c(Cl)cc(O)c5c4[C@@]3(CCN1CC1CC1)[C@H]2O5; target = OPRD1; test = radioligand binding; test system = CHO; conditions = with: [3H]Cl-DPDPE; measurement = Ki; result = 0.0172 ± 0.00026 µM
Compound = O=C1CC2CC(c3cccc(O)c3)(CCN2CCc2ccccc2)C1 (stereo not shown); target = OPRD1; test = binding; test system = CHO cells expressing human DOR; conditions = with: [3H]DADLE; measurement = Ki; result = 3.54 ± 0.273 µM
Compound = CO[C@]12CC[C@@]3(C[C@@H]1[C@](C)(O)CC(C)(C)C)[C@H]1Cc4ccc(O)c5c4[C@@]3(CCN1CC1CC1)[C@H]2O5; target = OPRD1; test = radioligand binding; test system = CHO; conditions = with: [3H]Cl-DPDPE; measurement = Ki; result = 0.00127 ± 0.00021 µM
Compound = CCCN1CCN(c2ccc3c(c2)C2CC3CCN2C(=O)OCc2ccccc2)CC1 (stereo not shown); target = OPRD1; test = binding, radioligand binding; measurement = Ki; result = > 10 µM
Compound = CN1CC[C@]23c4c5ccc(O)c4O[C@H]2[C@H](NC(=O)c2cccc(I)c2)CC[C@@]3(O)[C@H]1C5; target = OPRD1; test = radioligand binding, competition binding; test system = CHO cells, transfected, cell membranes; conditions = with: [3H]DPDPE 1 nM; measurement = Ki; result = 0.0708 ± 0.0154 µM
Compound = N=C(N)NCC(=O)NCC1(Cc2ccccc2)CCN(Cc2ccccc2)CC1; target = OPRD1; test = binding; conditions = with: [3H]DPDPE; measurement = Ki; result = 2.49 ± 0.2 µM
Compound = CC[C@@](O)(c1ccccc1)[C@H]1C[C@@]23CC[C@]1(OC)[C@@H]1Oc4c(O)ccc5c4[C@@]12CCN(CC1CC1)[C@@H]3C5; target = OPRD1; test = binding, radioligand displacement; test system = CHO; conditions = with: [3H]DPDPE; measurement = Ki; result = 0.0008 ± 5e-05 µM
Compound = CO[C@]12CC[C@@]3(C[C@@H]1[C@](C)(O)CC(C)(C)c1ccccc1)[C@H]1Cc4ccc(O)c5c4[C@@]3(CCN1CC1CC1)[C@H]2O5; target = OPRD1; test = radioligand binding; test system = CHO; conditions = with: [3H]Cl-DPDPE; measurement = Ki; result = 0.00366 ± 0.00092 µM

Excerpt of the above:
Compound = CO[C@]12CC[C@@]3(C[C@@H]1[C@H](O)c1ccccc1)[C@H]1Cc4ccc(O)c5c4[C@@]3(CCN1CC1CC1)[C@H]2O5; target = OPRD1; test = G-protein activation, agonist; measurement = EC50; result = 0.00454 ± 0.00058 µM
Compound = CCCN1CCN(c2ccc3c(c2)C2CC3CCN2C(=O)OCc2ccccc2)CC1 (stereo not shown); target = OPRD1; test = binding, radioligand binding; measurement = Ki; result = > 10 µM
